Earlier results that unrelated publications cite.
Each line is one published result; not all experiments were run side by side. ± marks the error that the study gave.
B1: CCL1; sequence looked up; chain KSMQVPFSRCCFSFAEQEIPLRAILCYRNTSSICSNEGLIFKLKRGKEACALDTVGWVQRHRKMLRHCPSKRK

| Molecule | tested on | assay | system | conditions | scale | quantity | result |
| --- | --- | --- | --- | --- | --- | --- | --- |
| cucurbit[7]uril | insulin | amyloid toxicity | – | concentration not given | – | cytotoxicity reduction | ~100% |
| coproporphyrin III | OATP1B1 | – | monkey | dose not given, added: rifampicin | baseline: without rifampicin | AUC fold increase | 3.6 fold |
| ILRWPWRIWRR | Staphylococcus aureus | – | peptide, ATCC 33591 | – | – | MIC | 64 µg/mL |
| LAGGSASSADAAFR | – | isocratic RP-HPLC, C18 column | peptide, water/acetonitrile, 0.1% TFA | 25 °C | – | retention coefficient S | 21.2 |
| GINLKRKGNIMKKVKNIFHKIANADPMIWGYVMLSESK | Staphylococcus aureus | – | peptide, ATCC 6538 | – | – | MIC | 4 µM |
| pegcetacoplan | – | – | cynomolgus monkey | subcutaneous, dose not given | – | bioavailability | ~85% |
| ivermectin | A549 | – | – | – | – | CC50 | 10 µM |
| LLGGGSLSSSLDAAAFR | – | isocratic RP-HPLC, C18 column | peptide, water/acetonitrile, 0.1% TFA | 25 °C | – | retention coefficient S | 20.9 |
| teicoplanin | – | – | – | pH 7.4 | – | logD | -3.6 |
| [18F]AlF-NOTA-octreotide | – | – | human plasma | 2 h | – | remaining intact compound | 98.5 ± 0.5% |
| LASAADFG | – | isocratic RP-HPLC, C18 column | peptide, water/acetonitrile, 0.1% TFA | 25 °C | – | retention coefficient S | 14.8 |
| coproporphyrin I | OATP1B1 | – | human | dose not given, added: rifampicin | baseline: without rifampicin | AUC fold increase | 4 fold |
| B1 (CCL1) | CCR8 S110W mutant | IP accumulation, agonist | – | – | – | EC50 | > 1 µM |

For quick reference, copied from above:
| Molecule | tested on | assay | system | conditions | scale | quantity | result |
| --- | --- | --- | --- | --- | --- | --- | --- |
| B1 (CCL1) | CCR8 S110W mutant | IP accumulation, agonist | – | – | – | EC50 | > 1 µM |
